Assay results of several laboratories.
A part holds a random share of what one study measured. Values joined by “and” are separate records of one study, mostly repeats; a detail may differ.
Sequence of UniProt Q13976 (whole entry, looked up): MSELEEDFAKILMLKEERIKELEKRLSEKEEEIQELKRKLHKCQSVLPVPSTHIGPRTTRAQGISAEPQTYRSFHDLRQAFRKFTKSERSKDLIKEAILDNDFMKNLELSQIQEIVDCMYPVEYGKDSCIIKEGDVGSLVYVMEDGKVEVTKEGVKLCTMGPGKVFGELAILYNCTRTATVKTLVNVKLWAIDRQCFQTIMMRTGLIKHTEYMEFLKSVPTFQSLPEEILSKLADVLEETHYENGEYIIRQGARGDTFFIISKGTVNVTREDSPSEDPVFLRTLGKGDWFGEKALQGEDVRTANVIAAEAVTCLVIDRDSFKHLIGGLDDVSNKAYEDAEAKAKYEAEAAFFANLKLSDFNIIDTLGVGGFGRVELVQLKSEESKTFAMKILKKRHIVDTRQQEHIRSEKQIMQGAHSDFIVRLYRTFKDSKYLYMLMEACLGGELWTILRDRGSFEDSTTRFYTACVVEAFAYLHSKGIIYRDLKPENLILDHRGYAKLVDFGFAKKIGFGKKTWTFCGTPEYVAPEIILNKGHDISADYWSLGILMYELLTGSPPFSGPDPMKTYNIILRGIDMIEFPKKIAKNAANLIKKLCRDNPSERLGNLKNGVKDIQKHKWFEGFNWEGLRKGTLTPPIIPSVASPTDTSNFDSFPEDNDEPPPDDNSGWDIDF
Sequence of UniProt P10721 (whole entry, looked up): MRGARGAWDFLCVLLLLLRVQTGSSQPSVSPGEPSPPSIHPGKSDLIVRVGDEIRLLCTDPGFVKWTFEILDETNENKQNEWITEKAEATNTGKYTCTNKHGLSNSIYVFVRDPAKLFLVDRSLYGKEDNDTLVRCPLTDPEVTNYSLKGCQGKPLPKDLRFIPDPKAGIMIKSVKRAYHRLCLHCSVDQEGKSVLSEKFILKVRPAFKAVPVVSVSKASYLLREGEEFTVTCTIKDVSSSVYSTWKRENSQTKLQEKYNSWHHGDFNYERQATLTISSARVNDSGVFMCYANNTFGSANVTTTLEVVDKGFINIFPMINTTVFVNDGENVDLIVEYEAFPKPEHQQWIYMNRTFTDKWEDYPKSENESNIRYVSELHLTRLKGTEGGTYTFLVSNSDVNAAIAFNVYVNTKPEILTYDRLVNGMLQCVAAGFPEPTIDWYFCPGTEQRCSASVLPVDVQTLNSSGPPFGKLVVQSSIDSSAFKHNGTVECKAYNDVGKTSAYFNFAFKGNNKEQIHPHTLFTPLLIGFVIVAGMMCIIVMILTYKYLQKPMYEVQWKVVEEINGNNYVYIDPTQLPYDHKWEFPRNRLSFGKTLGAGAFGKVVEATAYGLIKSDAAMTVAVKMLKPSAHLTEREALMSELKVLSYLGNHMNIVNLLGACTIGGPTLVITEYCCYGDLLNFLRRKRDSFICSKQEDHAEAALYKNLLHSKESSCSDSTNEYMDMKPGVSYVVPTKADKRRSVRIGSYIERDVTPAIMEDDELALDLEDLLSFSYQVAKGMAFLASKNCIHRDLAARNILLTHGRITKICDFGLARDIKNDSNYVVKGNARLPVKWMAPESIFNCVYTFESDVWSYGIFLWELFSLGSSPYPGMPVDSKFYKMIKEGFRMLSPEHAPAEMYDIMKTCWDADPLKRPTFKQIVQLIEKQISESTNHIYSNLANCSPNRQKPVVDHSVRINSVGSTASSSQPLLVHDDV
Sequence of UniProt Q6P2M8 (whole entry, looked up): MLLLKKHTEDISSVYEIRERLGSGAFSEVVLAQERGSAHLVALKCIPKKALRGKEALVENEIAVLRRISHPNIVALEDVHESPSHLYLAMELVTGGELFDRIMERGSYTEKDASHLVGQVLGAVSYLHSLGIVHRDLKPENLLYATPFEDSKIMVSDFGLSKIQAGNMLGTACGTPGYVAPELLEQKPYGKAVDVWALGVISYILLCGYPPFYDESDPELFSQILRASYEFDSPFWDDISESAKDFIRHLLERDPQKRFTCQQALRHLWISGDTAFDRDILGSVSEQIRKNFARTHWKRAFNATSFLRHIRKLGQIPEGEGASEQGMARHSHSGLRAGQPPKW

Series 1 — matrix: plasma; route: intravenous; dose: 1.0 mg/kg
Compound: O=C1CCC(N2Cc3c(ccc4c3OCC43CCN(Cc4ccccc4)CC3)C2=O)C(=O)N1 (stereo not drawn)
The “terminal volume of distribution” was 3.69 L/kg (Sprague Dawley rats, male).
The “terminal volume of distribution” was 5.55 L/kg (ICR mice, male).
The “terminal volume of distribution” was 3.81 L/kg (Sprague Dawley rat, male).

Series 2 — species: C57BL/6 CES1-/- mouse, both sexes
Structure (SMILES): CC(=O)N[C@@H](Cc1c[nH]c2ccccc12)C(=O)N[C@@H](CCC(=O)C=[N+]=[N-])C(=O)OC(C)C
It gave 96.6% and 104% and 105% and 109% and 100% and 114% for body weight (0.1 mg/kg, day 16).
0.3 mg/kg, day 14 — body weight: 95.7% and 100% and 103%.
It gave 100% and 93.9% and 93.1% and 90.9% for body weight (1 mg/kg, day 15).
The body weight was 100% (0.1 mg/kg, day 7).
For 0.3 mg/kg, day 18: body weight read 95.7% and 100% and 96.4%.

Series 3 — observed: enzyme activity; mode: inhibitor; concentration: 0.5 µM
Compound: CCn1cnc2c(Nc3cccc(Cl)c3)nc(N[C@H]3CCCC[C@H]3N)nc21
Casein kinase II subunit alpha (CSNK2A1, Homo sapiens, UniProt P68400); relative to: control — remaining activity: 84.2%.
The remaining activity was 82.5% (Tyrosine-protein kinase BTK (BTK, Homo sapiens, UniProt Q06187); relative to: control).
Serine/threonine-protein kinase Nek4 (NEK4, Homo sapiens, UniProt P51957); relative to: control — remaining activity: 96.8%.
For Leucine-rich repeat serine/threonine-protein kinase 2 (LRRK2, Homo sapiens, UniProt Q5S007); relative to: control: remaining activity read 70%.
For Serine/threonine-protein kinase PLK2 (PLK2, Homo sapiens, UniProt Q9NYY3); relative to: control: remaining activity read 95.8%.
For Cyclin-dependent kinase 9, with cyclin T1 (CDK9, Homo sapiens, UniProt P50750); relative to: control: remaining activity read 53.7%.
For RAC-gamma serine/threonine-protein kinase (AKT3, Homo sapiens, UniProt Q9Y243); relative to: control: remaining activity read 95.8%.
For MAP kinase-interacting serine/threonine-protein kinase 2 (MKNK2, Homo sapiens, UniProt Q9HBH9); relative to: control: remaining activity read 93.5%.
Dual specificity mitogen-activated protein kinase kinase 6 (MAP2K6, Homo sapiens, UniProt P52564); relative to: control — remaining activity: 100%.
It gave 94.8% for remaining activity (Interleukin-1 receptor-associated kinase 4 (IRAK4, Homo sapiens, UniProt Q9NWZ3); relative to: control).
The remaining activity was 91.4% (cGMP-dependent protein kinase 1 (PRKG1, Homo sapiens, UniProt Q13976); relative to: control).
It gave 98.7% for remaining activity (Casein kinase I isoform alpha (CSNK1A1, Homo sapiens, UniProt P48729); relative to: control).
Ephrin type-A receptor 5 (EPHA5, Homo sapiens, UniProt P54756); relative to: control — remaining activity: 73.9%.
For Serine/threonine-protein kinase Chk1 (CHEK1, Homo sapiens, UniProt O14757); relative to: control: remaining activity read 85.8%.
The remaining activity was 89.3% (Dual specificity protein kinase CLK1 (CLK1, Homo sapiens, UniProt P49759)).
The remaining activity was 91.2% (Protein kinase C delta type (PRKCD, Homo sapiens, UniProt Q05655); relative to: control).
It gave 87.4% for remaining activity (Mitogen-activated protein kinase kinase kinase kinase 2 (MAP4K2, Homo sapiens, UniProt Q12851); relative to: control).
The remaining activity was 102% (Mitogen-activated protein kinase 13 (MAPK13, Homo sapiens, UniProt O15264); relative to: control).
For Tyrosine-protein kinase Lyn (LYN, Homo sapiens, UniProt P07948); relative to: control: remaining activity read 67.3%.
It gave 94.1% for remaining activity (Serine/threonine-protein kinase WNK2 (WNK2, Homo sapiens, UniProt Q9Y3S1); relative to: control).
Mast/stem cell growth factor receptor Kit (KIT, Homo sapiens, UniProt P10721); relative to: control — remaining activity: 101%.
For Mitogen-activated protein kinase kinase kinase 10 (MAP3K10, Homo sapiens, UniProt Q02779); relative to: control: remaining activity read 92.9%.
For Protein kinase C iota type (PRKCI, Homo sapiens, UniProt P41743); relative to: control: remaining activity read 99.7%.
The remaining activity was 96.6% (Mitogen-activated protein kinase 12 (MAPK12, Homo sapiens, UniProt P53778); relative to: control).

Series 4 — observed: binding; method: competition with immobilised ligand
SMILES: Cn1cncc1[C@](O)(COc1ccc(C#N)cc1-c1ccc(OC(F)(F)F)cc1)c1ccc(C#N)cc1
For Calcium/calmodulin-dependent protein kinase type 1B (PNCK, Homo sapiens, UniProt Q6P2M8): Kd read > 10 µM.
Ephrin type-A receptor 1 (EPHA1, Homo sapiens, UniProt P21709) — Kd: > 10 µM.
The Kd was > 10 µM (Aurora kinase B (AURKB, Homo sapiens, UniProt Q96GD4)).
Homeodomain-interacting protein kinase 2 (HIPK2, Homo sapiens, UniProt Q9H2X6) — Kd: > 10 µM.

Series 5 — observed: enzyme activity; mode: inhibitor; concentration: 77 µM; relative to: untreated
Target: DNA polymerase theta, ATPase domain (POLQ, Homo sapiens, UniProt O75417)
Sequence of UniProt O75417 (whole entry, unmodified, looked up): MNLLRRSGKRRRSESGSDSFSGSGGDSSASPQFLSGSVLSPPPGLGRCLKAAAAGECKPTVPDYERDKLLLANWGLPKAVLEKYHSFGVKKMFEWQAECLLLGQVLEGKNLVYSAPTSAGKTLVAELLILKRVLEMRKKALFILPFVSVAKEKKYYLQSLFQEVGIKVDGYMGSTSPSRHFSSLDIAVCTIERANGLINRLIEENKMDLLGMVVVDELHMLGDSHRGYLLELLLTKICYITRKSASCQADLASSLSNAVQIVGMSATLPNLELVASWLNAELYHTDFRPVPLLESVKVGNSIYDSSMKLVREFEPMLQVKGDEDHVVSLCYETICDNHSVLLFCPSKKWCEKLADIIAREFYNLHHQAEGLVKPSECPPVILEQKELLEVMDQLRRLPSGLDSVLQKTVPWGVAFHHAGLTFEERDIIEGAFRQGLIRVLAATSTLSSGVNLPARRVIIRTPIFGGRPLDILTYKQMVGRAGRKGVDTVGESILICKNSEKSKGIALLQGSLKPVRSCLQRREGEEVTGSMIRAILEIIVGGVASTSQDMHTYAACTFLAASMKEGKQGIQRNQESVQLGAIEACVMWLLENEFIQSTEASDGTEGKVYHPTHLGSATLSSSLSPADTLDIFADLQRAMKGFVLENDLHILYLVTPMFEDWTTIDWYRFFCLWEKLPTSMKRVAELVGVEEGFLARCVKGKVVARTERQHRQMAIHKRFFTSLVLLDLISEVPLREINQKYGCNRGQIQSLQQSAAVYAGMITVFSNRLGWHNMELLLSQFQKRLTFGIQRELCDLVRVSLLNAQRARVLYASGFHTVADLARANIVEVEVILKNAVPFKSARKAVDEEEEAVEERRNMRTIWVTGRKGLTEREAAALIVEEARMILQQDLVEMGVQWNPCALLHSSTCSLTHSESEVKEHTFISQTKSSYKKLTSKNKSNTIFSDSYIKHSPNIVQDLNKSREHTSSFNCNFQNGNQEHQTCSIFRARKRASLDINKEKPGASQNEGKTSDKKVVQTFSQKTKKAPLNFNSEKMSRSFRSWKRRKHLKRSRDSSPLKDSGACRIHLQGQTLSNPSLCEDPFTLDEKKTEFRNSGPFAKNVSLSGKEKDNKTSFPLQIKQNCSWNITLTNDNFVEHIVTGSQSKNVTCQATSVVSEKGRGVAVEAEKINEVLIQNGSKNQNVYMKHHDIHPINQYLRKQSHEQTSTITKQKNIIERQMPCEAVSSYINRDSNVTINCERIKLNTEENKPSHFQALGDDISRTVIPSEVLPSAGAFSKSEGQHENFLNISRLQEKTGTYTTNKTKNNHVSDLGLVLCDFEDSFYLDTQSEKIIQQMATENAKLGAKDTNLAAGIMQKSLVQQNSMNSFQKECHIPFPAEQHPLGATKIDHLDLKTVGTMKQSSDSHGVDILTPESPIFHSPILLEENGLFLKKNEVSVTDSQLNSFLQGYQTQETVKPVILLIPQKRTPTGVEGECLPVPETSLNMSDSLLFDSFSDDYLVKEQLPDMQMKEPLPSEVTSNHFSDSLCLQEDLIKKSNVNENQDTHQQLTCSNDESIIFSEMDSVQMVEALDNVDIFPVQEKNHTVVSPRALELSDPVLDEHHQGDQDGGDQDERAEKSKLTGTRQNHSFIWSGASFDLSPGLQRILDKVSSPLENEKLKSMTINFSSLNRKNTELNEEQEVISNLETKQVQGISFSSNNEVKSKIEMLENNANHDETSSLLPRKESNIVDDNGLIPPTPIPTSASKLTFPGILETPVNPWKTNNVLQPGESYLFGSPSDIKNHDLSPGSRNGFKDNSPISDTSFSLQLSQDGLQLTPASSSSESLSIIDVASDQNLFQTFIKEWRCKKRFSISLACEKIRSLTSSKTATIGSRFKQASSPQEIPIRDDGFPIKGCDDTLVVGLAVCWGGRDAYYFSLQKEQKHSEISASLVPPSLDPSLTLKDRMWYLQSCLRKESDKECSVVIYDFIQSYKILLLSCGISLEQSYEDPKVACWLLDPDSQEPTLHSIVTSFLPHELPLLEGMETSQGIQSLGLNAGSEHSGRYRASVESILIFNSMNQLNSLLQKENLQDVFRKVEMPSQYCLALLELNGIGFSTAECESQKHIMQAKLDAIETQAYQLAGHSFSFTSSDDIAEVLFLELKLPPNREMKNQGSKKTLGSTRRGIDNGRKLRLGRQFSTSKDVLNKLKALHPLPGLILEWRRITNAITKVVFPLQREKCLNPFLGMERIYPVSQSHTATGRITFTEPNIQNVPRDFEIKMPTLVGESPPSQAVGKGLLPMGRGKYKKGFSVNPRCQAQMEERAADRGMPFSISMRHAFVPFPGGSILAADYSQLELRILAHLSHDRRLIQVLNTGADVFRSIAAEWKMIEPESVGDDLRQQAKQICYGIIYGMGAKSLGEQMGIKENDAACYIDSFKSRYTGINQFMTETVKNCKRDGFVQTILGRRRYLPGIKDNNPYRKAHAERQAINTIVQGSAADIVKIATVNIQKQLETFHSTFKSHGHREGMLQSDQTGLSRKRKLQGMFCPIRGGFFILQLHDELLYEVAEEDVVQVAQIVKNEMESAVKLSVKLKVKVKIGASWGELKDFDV
For `C[C@]12CC[C@H](O)CC1=CC[C@@H]1[C@@H]2CC[C@]2(C)C(=O)CC[C@@H]12`, the remaining activity was 101%.
`CC[C@H]1[C@@H]2C[C@H]3[C@@H]4N(C)c5ccccc5[C@]45C[C@@H]([C@H]2[C@H]5O)N3[C@@H]1O` gave a remaining activity of 101%.
The remaining activity of `Cc1[nH]c2ccc(O)cc2c1CCN` is reported as 107%.

Series 6 — observed: RNA clamping; method: fluorescence polarization; concentration: concentration not given; setting: mean of two replicates; with: FAM-labelled poly r(AG)8 RNA
Target: Eukaryotic initiation factor 4A-III (Homo sapiens, UniProt P38919)
Sequence of UniProt P38919 (whole entry, looked up): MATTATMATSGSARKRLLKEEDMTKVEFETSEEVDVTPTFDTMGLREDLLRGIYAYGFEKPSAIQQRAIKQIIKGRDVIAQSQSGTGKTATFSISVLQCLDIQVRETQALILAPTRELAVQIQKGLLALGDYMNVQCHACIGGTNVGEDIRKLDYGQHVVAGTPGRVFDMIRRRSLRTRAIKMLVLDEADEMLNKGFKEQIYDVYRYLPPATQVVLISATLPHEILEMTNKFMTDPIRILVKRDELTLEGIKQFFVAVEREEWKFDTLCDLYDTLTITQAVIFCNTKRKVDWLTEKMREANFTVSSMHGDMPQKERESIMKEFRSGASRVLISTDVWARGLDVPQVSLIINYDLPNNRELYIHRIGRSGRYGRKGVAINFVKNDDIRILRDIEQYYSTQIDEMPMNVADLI
`COc1ccc([C@@]23Oc4cc(OC)cc(OC)c4[C@]2(O)C(=O)C[C@H]3c2ccccc2)cc1` — result for “fluorescence polarization change”: 32.6 mP.
`COCCN[C@]12c3c(OC)cc(OC)cc3O[C@@]1(c1ccc(OC)cc1)[C@H](c1ccccc1)[C@@H](C(=O)N(C)C)[C@H]2O`: “fluorescence polarization change” 3.9 mP.
`CONC(=O)[C@H]1[C@@H](O)[C@@]2(O)c3c(OC)cc(OC)cc3O[C@@]2(c2ccc(OC)cc2)[C@@H]1c1ccccc1`: “fluorescence polarization change” 28.3 mP and 55.5 mP and 53.1 mP.
`COC(=O)[C@@H]1[C@@H](c2ccccc2)C2(c3ccc(OC)cc3)C(=O)C1(O)c1ccccc1N2C` (stereo partly drawn) — result for “fluorescence polarization change”: -6.4 mP.
`COc1ccc([C@@]23Oc4cc(OC)cc(OC)c4[C@]2(O)c2nc(-c4cccc(C)c4)[nH]c(=O)c2[C@H]3c2ccccc2)cc1`: “fluorescence polarization change” 11.2 mP.
Under “fluorescence polarization change”, `COc1cc(F)cc2c1[C@]1(O)[C@H](O)[C@H](/C(N)=N/O)[C@@H](c3ccccc3)[C@]1(c1ccc(Br)cc1)O2` is recorded as 41.1 mP.
For `COCC1=N[C@@]2(O)[C@H](C(=O)OC)[C@@H](c3ccccc3)[C@]3(c4ccc(OC)cc4)Oc4cc(OC)cc(OC)c4[C@]23N1`, “fluorescence polarization change” read 42.8 mP and 31.4 mP.
`COC(=O)[C@H]1[C@H](c2ccccc2)[C@@]2(c3ccc(OC)cc3)Oc3cc(OC)cc(OC)c3[C@]1(O)[C@H]2O` — result for “fluorescence polarization change”: 0.5 mP.

Other studies, line by line
`O=C1CCC[C@@H]2[C@H]3CCCN4CCC[C@H](CN12)[C@@H]34` has an inhibition of -11% (Calcium/calmodulin-dependent protein kinase type II subunit alpha (CAMK2A, Homo sapiens, UniProt Q9UQM7); enzyme activity, inhibitor; 10 µM).

Some of these lines once more (series 1):
The “terminal volume of distribution” was 3.81 L/kg (Sprague Dawley rat, male).
The “terminal volume of distribution” was 3.69 L/kg (Sprague Dawley rats, male).
The “terminal volume of distribution” was 5.55 L/kg (ICR mice, male).
